Assay results pooled from the literature.
Several values in a cell are separate wells, animals, samples, runs or records. ± marks the error that the study gave.
Sequence of UniProt P50750 (whole entry, looked up): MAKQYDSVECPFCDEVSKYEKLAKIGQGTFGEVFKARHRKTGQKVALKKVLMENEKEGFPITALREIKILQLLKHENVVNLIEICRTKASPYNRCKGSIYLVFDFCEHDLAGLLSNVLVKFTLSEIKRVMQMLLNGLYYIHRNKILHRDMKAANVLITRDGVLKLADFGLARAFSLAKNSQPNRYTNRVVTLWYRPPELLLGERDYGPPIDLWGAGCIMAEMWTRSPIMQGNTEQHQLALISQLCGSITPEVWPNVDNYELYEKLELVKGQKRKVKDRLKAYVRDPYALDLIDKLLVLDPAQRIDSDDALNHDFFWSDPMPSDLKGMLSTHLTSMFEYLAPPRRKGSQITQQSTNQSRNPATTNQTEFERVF

Structure (SMILES)	tested on	assay	test system	conditions	how to read	endpoint	result
COc1cc2c(Oc3ccc4[nH]c(C)cc4c3F)ccnc2cc1OCC1(N)CC1			paediatric recurrent refractory sarcoma	12 mg		grade 3 Fever	0%
O=C(O)CCCOc1ccc(F)cc1-c1cc(-c2ccccc2C(F)(F)F)n(-c2ccccc2)n1			female Crl:CD(SD) rats	intravenous, 25 µg/kg, 14 d		fibrinogen	190 mg/dL and 201 mg/dL and 186 mg/dL and 213 mg/dL and 197 mg/dL
CCCN(CCC)CCNC(=O)c1cc(-c2ccc(Br)s2)nc2ccccc12	Vero-E6	CellTiter-Glo ATP		72 h, second round 5-point	reference: DMSO 0%, hyamine -100%, more negative, more toxic	maximum response	-5.38%
COc1ccc2nc3cc(Cl)ccc3c(Nc3cc(CN4CCCC4)c(O)c(CN4CCCC4)c3)c2n1			mouse, blood	intraperitoneal, 57 mg/kg		lymphocyte count	4.49 10⁹/L
CCc1ccc(CC/C=C/c2ccc3c(c2)C(=O)CC3)cc1			Sprague-Dawley rat, male, serum	oral, 30 mg/kg/day, 14 days		sodium	143 mM
NCCCC[C@@H]1NC(=O)[C@@H](Cc2c[nH]c3ccccc23)NC(=O)[C@H](c2ccccc2)NC(=O)[C@@H]2C[C@@H](OC(=O)NCCN)CN2C(=O)[C@H](Cc2ccccc2)NC(=O)[C@H](Cc2ccc(OCc3ccccc3)cc2)NC1=O			healthy volunteers	subcutaneous, 1950 µg twice daily, day 5, 1.00 h		QTcI change from baseline	5.5 ms
CCN(CCO)CCCC(C)Nc1ccnc2cc(Cl)ccc12 (stereo not shown)		measured: Infections grade 3	newly diagnosed glioblastoma patients	oral, 800 mg/dose, with radiotherapy and temozolomide		patients with adverse event	66%
Nc1ncnc2c1ncn2[C@@H]1O[C@@H]2COP(=O)([S-])O[C@@H]3[C@H](O)[C@@H](COP([O-])(=S)O[C@H]2[C@H]1O)O[C@H]3n1cnc2c(N)ncnc21.[Na+].[Na+] (stereo partly shown)			non-tumor-bearing mice, blood	intravenous, 1 mg/kg, toxicity study		MCV	38.9 ± 0.69 fL
CC1(C)[C@H](C=C(Cl)Cl)[C@H]1C(=O)OCc1cccc(Oc2ccccc2)c1		measured: CYP2C9	human, age 6 months, recombinant human CYP2C9	0.1 µM		enzyme contribution to clearance	0.87%
CCN1[C@@H](C(=O)NC23CCC(C(=O)O)(CC2)CC3)[C@H](c2cccc(Cl)c2F)[C@]2(C(=O)Nc3cc(Cl)ccc32)C12CCCCC2			patients with advanced solid tumours	oral, dose not given, all doses		any-grade thrombocytopenia incidence	52.4%
C[C@H]1CN(c2n[nH]c3nc(N[C@H]4CC[C@H](NS(=O)(=O)CCC(F)(F)F)CC4)ncc23)CCO1	CDK9 (Homo sapiens, UniProt P50750)	competitor, Kinobeads competition	HEK293, K562, placenta extract			Hill slope	1
CN1CC[C@@H](c2c(O)cc(O)c3c(=O)cc(-c4ccc(C(F)(F)F)cc4Cl)oc23)[C@@H]1CO		measured: Dizziness	B-cell malignancies	oral, 100 mg, intermittent dosing		patients with adverse event	0%
CC(C)(c1ccc(O)cc1)c1ccc(O)cc1		ultrafiltration	cow milk whey	20 nM nominal in whole milk		final permeate concentration	0.93 nM
Cc1noc(C)c1Cn1cc(N2C(=O)CN(Cc3cccc(O)c3)C2=O)cn1			CD-1 mouse, male, bone marrow	500 mg/kg/day, 24 h		micronucleated PCE	0.3 per 2000 PCE
COC[C@@]12CC[C@H](OC)[C@]34C(C([C@H](OC)[C@H]13)[C@]1(OC(C)=O)[C@H]3[C@@H](OC(=O)c5ccccc5)[C@](O)(C[C@H]34)[C@@H](OC)[C@@H]1O)N(C)C2			Sprague-Dawley rat, plasma	oral, dose not given, in PCW extract		half-life	177 ± 92.1 min
O=c1nc(NO)ccn1[C@@H]1O[C@H](CO)[C@@H](O)[C@H]1O			rat maternal placenta dialysate	1000 ng/mL, more than 4 weeks, -20 °C, high concentration, added: molnupiravir 250 ng/mL		long-term stability	102.8 ± 0.47%
COc1ccc([C@@H]2CC(=O)c3c(O)cc(O)cc3O2)cc1O			Sprague-Dawley rat, male, lean, faeces	oral, 100 mg/kg neohesperidin, 48 h	reference: dose	faecal recovery	0.147 ± 0.04%
C[C@]1(CO)Cc2ncn(-c3ccc(C#N)c(Cl)c3)c2C(=O)O1			human	concentration not given, European single ascending dose		disorders, nervous system, drug related	6.3%
COc1cc(NC(=O)CCN2CCC(OC(=O)Nc3ccccc3-c3ccccc3)CC2)c(Cl)cc1CNC[C@H](O)c1ccc(O)c2[nH]c(=O)ccc12			human	oral		absorption rate constant	0 h⁻¹
CCS(=O)(=O)Nc1ccc(Oc2ccc(F)cc2F)c(-c2cn(C)c(=O)c3[nH]ccc23)c1		septic shock leading to discontinuation	human, relapsed/refractory AML	oral, dose not given		treatment-emergent adverse events	0%
CC[C@H](C)[C@H](NC(=O)[C@H](CC(C)C)NC(=O)[C@H](CCCCN)NC(=O)[C@@H](NC(=O)[C@H](C)NC(=O)[C@H](CCC(=O)O)NC(=O)[C@H](Cc1c[nH]cn1)NC(=O)[C@@H](NC(=O)[C@H](CCCCN)NC(=O)[C@H](CCC(N)=O)NC(=O)[C@H](Cc1ccccc1)NC(=O)[C@@H](N)C(C)C)[C@@H](C)CC)[C@@H](C)CC)C(N)=O		hemolysis	mouse erythrocytes			HC10	256 µM
CCCCN(C)CCNC(=O)c1cc(-c2ccc(Cl)s2)nc2ccccc12	Vero-E6	CellTiter-Glo ATP		72 h, retest 8-point duplicates	reference: DMSO 0%, hyamine -100%, more negative, more toxic	maximum response	-55.3%
CC(C)C[C@H](NC(=O)[C@H](CCCCN)NC(=O)OCC1c2ccccc2-c2ccccc21)C(=O)N[C@H](C(=O)N[C@@H](Cc1ccccc1)C(=O)N[C@@H](Cc1ccccc1)C(=O)N[C@@H](CCCCN)C(=O)NCC(=O)N[C@@H](Cc1ccccc1)C(=O)N[C@@H](C)C(=O)N[C@@H](Cc1c[nH]c2ccccc12)C(=O)N[C@@H](CC(N)=O)C(=O)N[C@H](C(=O)N[C@H]1CSSC[C@@H](C(=O)N[C@@H](Cc2c[nH]cn2)C(=O)N[C@@H](CCCNC(=N)N)C(=O)N[C@@H](CCCNC(=N)N)C(=O)N[C@@H](C)C(=O)N[C@@H](CC(N)=O)C(N)=O)NC(=O)[C@H](C(C)C)NC(=O)[C@H](CCCNC(=N)N)NC(=O)[C@H](C(C)C)NC(=O)CNC(=O)[C@H](CC(N)=O)NC(=O)[C@H](CCCNC(=N)N)NC(=O)[C@H](Cc2ccc(O)cc2)NC(=O)[C@H](C(C)C)NC1=O)C(C)C)C(C)C			mouse mammary gland homogenate 50 mg/mL	8.00 h, 37 °C		peptide remaining	71.3% and 76.1% and 73.2%
COc1ncccc1-c1cnn2ccc(N3CCN(C(=O)OC(C)C)CC3)nc12			mouse open field, plasma	oral, 30 mg/kg, 60 min		free concentration	264 nM
CC(=O)c1c(C)c2cnc(Nc3ccc(C4CCN(CCS(C)(=O)=O)CC4)cn3)nc2n(C2CCCC2)c1=O			human, plasma	oral, 75 mg twice daily, day 21, multiple dose, added: letrozole		k_el	3.06e-05 s⁻¹
COc1ncnn2ccc(-c3cnc4nc(C)n(Cc5nnc([C@@H](C)F)o5)c4c3)c12			human patients	oral, dose not given		incidence of grade ≥3 decreased WBC	14.3%
CO[C@H]1C[C@@H]2CC[C@@H](C)[C@@](O)(O2)C(=O)C(=O)N2CCCC[C@H]2C(=O)O[C@H]([C@H](C)C[C@@H]2CC[C@@H](OC(=O)NCCOCCOCCOCCOCCOCCOCCOCCOCCC(=O)N3CCc4cc(Cn5nc(-c6ccc7oc(N)nc7c6)c6c(N)ncnc65)ccc4C3)[C@H](OC)C2)C[C@@H](O)[C@H](C)/C=C(\C)[C@@H](O)[C@@H](OC)C(=O)[C@H](C)C[C@H](C)/C=C/C=C/C=C/1C			patients with advanced solid tumours	intravenous, 16 mg weekly, any grade		mucositis incidence	75%
O=C(Nc1ccccc1)C1CCN(C(=O)Oc2cccnc2)CC1		adverse event reporting	healthy women	oral, 60 mg, 7 days		subjects with infections and infestations	0%

Excerpt of the above:
Structure (SMILES)	tested on	assay	test system	conditions	how to read	endpoint	result
CC(=O)c1c(C)c2cnc(Nc3ccc(C4CCN(CCS(C)(=O)=O)CC4)cn3)nc2n(C2CCCC2)c1=O			human, plasma	oral, 75 mg twice daily, day 21, multiple dose, added: letrozole		k_el	3.06e-05 s⁻¹
COc1ncnn2ccc(-c3cnc4nc(C)n(Cc5nnc([C@@H](C)F)o5)c4c3)c12			human patients	oral, dose not given		incidence of grade ≥3 decreased WBC	14.3%
CO[C@H]1C[C@@H]2CC[C@@H](C)[C@@](O)(O2)C(=O)C(=O)N2CCCC[C@H]2C(=O)O[C@H]([C@H](C)C[C@@H]2CC[C@@H](OC(=O)NCCOCCOCCOCCOCCOCCOCCOCCOCCC(=O)N3CCc4cc(Cn5nc(-c6ccc7oc(N)nc7c6)c6c(N)ncnc65)ccc4C3)[C@H](OC)C2)C[C@@H](O)[C@H](C)/C=C(\C)[C@@H](O)[C@@H](OC)C(=O)[C@H](C)C[C@H](C)/C=C/C=C/C=C/1C			patients with advanced solid tumours	intravenous, 16 mg weekly, any grade		mucositis incidence	75%
O=C(Nc1ccccc1)C1CCN(C(=O)Oc2cccnc2)CC1		adverse event reporting	healthy women	oral, 60 mg, 7 days		subjects with infections and infestations	0%
